Measured values from different studies.
Lines come from different studies, so protocols differ. ± marks the error that the study gave.

COc1cc(/C=C/C(=O)/C=C(O)/C=C/c2ccc(OCC(=O)N3CCOCCOCCOCC3)c(OC)c2)ccc1OCC(=O)N1CCOCCOCCOCC1 — inhibition (SK-LU-1; cell growth or viability, SRB; 5 µM): 6.27%
COc1cc(O)c(Cl)cc1/C=C/C(=O)c1ccc(C(F)(F)F)cc1 — CD86 expression (mouse bone marrow macrophages; flow cytometry; 10 and 20 µM, added: LPS): decreased
COc1ccc2c(-c3ccc(O)c(C)c3)ccnc2c1 — TNF-α level (PBMC from rheumatoid arthritis patients; concentration not given): decreased
COc1cc(CNC(=O)C[C@H](C)CCC=C(C)C)ccc1OCc1cn(-c2ccc(C#N)cc2)nn1 — growth percent (NCI-H522; SRB; 10 µM, 48 h): 63.5%
Cc1cnc2c(ccc3c(C)c(C)cnc32)c1C.O=C([O-])Cc1ccccc1Nc1c(Cl)cccc1Cl.O=C([O-])Cc1ccccc1Nc1c(Cl)cccc1Cl.[Cu+2] — mammosphere number and size (HMLER-shEcad; IC20, 5 d): no effect
Cc1nc(C)c(C=[N+]([O-])C(C)(C)C)nc1C — increase in protein level (primary rat midbrain neurons; Western blot, measured: SIRT1; 100 µM, added: 20 µM MPP+): 85.3%
COc1cc2c(cc1C)NC(=O)C2=Cc1c(Cl)[nH]c2c1ccc1ccccc12 — TGI (prostate cancer subpanel of NCI-60; 48 h): 3020 nM
COc1cc(CNC(=O)C[C@H](C)CCC=C(C)C)ccc1OCc1cn(-c2cccc(Cl)c2)nn1 — growth percent (SK-MEL-28 melanoma cells; SRB; 10 µM, 48 h): 76.6%
O=C(Cn1c(=O)c(Cc2ccccc2)nc2ccccc21)OCCNCCO — mRNA level (HCT-116; qRT-PCR, measured: p21; concentration not given, 72 h; relative to: untreated): 3.19 ± 0.035 fold
O=Cc1c(O)ccc2ccccc12 — log2 fold change (HUVEC; RNA sequencing, measured: DHFR; 75 µM, 24 h; relative to: DMSO): -3.1
N=C(N)NCCC[C@H](NC(=O)[C@H](Cc1c[nH]c2ccccc12)NC(=O)[C@H](CCC(N)=O)NC(=O)[C@H](Cc1c[nH]c2ccccc12)NC(=O)[C@H](CCCNC(=N)N)NC(=O)[C@H](Cc1c[nH]c2ccccc12)NC(=O)[C@H](CCC(N)=O)NC(=O)[C@H](Cc1c[nH]c2ccccc12)NC(=O)[C@@H](N)CCCNC(=N)N)C(N)=O — viability (young human fibroblasts primary; MTT; concentration not given, 2 h, 37 °C, 5% FBS; relative to: untreated cells): 97 ± 5%
CC(C)(C)C(=O)Nc1ccc2[nH]c(CN3CCC(N(CCCN4CCOCC4)CC4OC(n5cnc6c(N)ncnc65)C(O)C4O)CC3)nc2c1 (stereo not shown) — inhibition (H460 wild type cells; tumorsphere formation; 5 µM, 7 to 14 days): 56.4%
CCCCCCCCCCCCCCCOC(=O)/C=C/c1cc(O)c(O)c(OC)c1 — caspase-9 activity (MDA-MB-231; concentration not given, 24 h; relative to: untreated): 48 % increase
C=CC(OC(C)=O)c1ccc(OC(C)=O)c(OC)c1 (stereo not shown) — phospho-FAK reduction (MDA-MB-231; Western blot, measured: phospho-FAK/FAK; concentration not given, 24 h): 70 to 94%
CCNC(=O)OCc1c(COC(=O)NCC)c(-c2ccc(OC)cc2)n2c1Cc1ccccc1-2 — protein level (H460 and PC-9/gef B4; Western blot, measured: FANCD2; 10 to 80 µM, 24 h): increased
Cc1cc2c(c(=O)o1)C=C1CCC(C(C)CNCc3ccc(O)cc3)CC1O2 (stereo not shown) — ROS production (MC65; inhibitor; concentration not given, tetracycline-free): inhibited
Cc1cc(O)cc(O)c1C(=O)c1c2c3c(c(O)cc(C)c3oc1=O)C(=O)c1c(O)cc(O)cc1-2 — γ-H2AX level (Bel-7402; western blot; concentration not given, 12 h): increased
COC1CN([C@H]2CC[C@H]([C@@]3(C)Oc4c(Cl)cc(C(=O)NCc5c(SC)cc(C)[nH]c5=O)c(C)c4O3)CC2)C1 — GI50 (KARPAS-422; cell growth or viability): 6 nM
COc1cc(CNC(=O)C[C@H](C)CCC=C(C)C)ccc1OCc1cn(-c2ccc([N+](=O)[O-])cc2)nn1 — growth percent (SK-MEL-28 melanoma cells; SRB; 10 µM, 48 h): 87.8%
CCCC(CCC)C(=O)[O][Pt]([NH2])([NH2])([Cl])([Cl])[O]C(=O)C(Cl)Cl — selectivity index (HEK293 and BCPAP; cytotoxicity, MTT; relative to: IC50 HEK293 over IC50 BCPAP): 198
C=C(CC)C(=O)c1ccc(OCC(=O)NCCNC(=O)COc2ccc(C(=O)C(=C)CC)c(Cl)c2Cl)c(Cl)c1Cl — IC10 (SGC-7901; cell growth, CCK-8; 72 h): ~1200 nM
CS(C)=O.CS(C)=O.[Cl][Cu][Cl].c1ccc(-c2nnc(-c3ccc4c(c3)OCO4)[nH]2)nc1 — early apoptotic cells (T24; annexin V/PI flow cytometry; 5.3 µM, 24 h): 77.8%
CO[C@H]1O[C@H](COC(c2ccccc2)(c2ccccc2)c2ccccc2)[C@@H](OS(=O)(=O)c2ccccc2)[C@H](OS(=O)(=O)c2ccccc2)[C@H]1OS(=O)(=O)c1ccccc1 — inhibition (Ehrlich; cell growth or viability, MTT; 62.5 µg/mL, 24 h): 3.78%
COc1ccc([C@@H]2CC(=O)c3c(O)cc(O[C@@H]4O[C@H](CO[C@@H]5O[C@@H](C)[C@H](O)[C@@H](O)[C@H]5O)[C@@H](O)[C@H](O)[C@H]4O)cc3O2)cc1O — gap closure (A549; cell migration, scratch; 100 µg/mL, 0 h): 0%
O=C(CSc1nc2ccccc2s1)Nc1nonc1[N+](=O)[O-] — mRNA level (Ramos; qRT-PCR, measured: ACTB and HPRT1; 15 µM, 8 h): no effect
Cc1c(C)c(C)[c-](C)c1C.[C-]#[O+].[C-]#[O+].[C-]#[O+].[Cl-].[Cl-].[Cl-].[Ir+3].[Re+].c1cnc(-c2ncccn2)nc1 — Pearson correlation coefficient (MDA-MB-468; mitochondrial co-localization, fluorescence microscopy; 25 µM, 48 h): 0.764
COc1cc(CNC(=O)C[C@H](C)CCC=C(C)C)ccc1OCc1cn(-c2cccc([N+](=O)[O-])c2)nn1 — growth percent (NCI-H522; SRB; 10 µM, 48 h): 80.1%
CC(=O)Oc1ccccc1C(=O)[O][Pt]([NH2])([NH2])([Cl])([Cl])[O]C(=O)CCCc1ccccc1 — IC50 fold lower (six human cancer lines; cytotoxicity, MTT; relative to: cisplatin): 27 fold
COc1cc(OC)cc([C@@H]2C[C@H](C)OC(=O)c3c(Sc4ccccc4)c4ccccn4c32)c1 (relative stereo) — selectivity ratio (MCF-10A; resazurin; relative to: CC50 MCF-10A over IC50 MDA-MB-231): 48
COc1cc(CNC(=O)C[C@H](C)CCC=C(C)C)ccc1OCc1cn(-c2ccc(Cl)c(Cl)c2)nn1 — growth percent (SK-MEL-28 melanoma cells; SRB; 10 µM, 48 h): 89.3%
CC(=C(c1ccc(O)cc1)c1ccc(Cl)cc1)c1ccc(Cl)cc1 — GI50 (Malme-3M; cell growth or viability, SRB): 540 nM
CC(C)C[C@H](NC(=O)[C@H](CC(C)C)NC(=O)[C@@H](Cc1c[nH]c2ccccc12)NC(=O)[C@H](Cc1ccccc1)NC(=O)[C@@H](Cc1c[nH]c2ccccc12)NC(=O)[C@H](CCC(N)=O)NC(=O)[C@H](CCC(N)=O)NC(=O)[C@@H]1CCCN1C(=O)[C@H](CCCCN)NC(=O)[C@@H]1CCCN1C(=O)[C@H](N)CCCNC(=N)N)C(N)=O — ERK activity (HEK293 expressing NK1R; cytosolic ERK, antagonist, FRET biosensor; concentration not given, 30 min, added: substance P): inhibited
CCCC(NC(=O)C(C#N)=Cc1nc(Cl)ccc1Cl)c1ccc(OCCN2CCOCC2)cc1 (stereo not shown) — downregulated proteins (Ramos; LFQ mass spectrometry; 10 µM, 8 h): 1780 count
COC(=O)C1NC(c2ccc[n+](C)c2)C23c4c5c6c7c8c9c(c%10c%11c2c2c4c4c%12c5c5c6c6c8c8c%13c9c9c%10c%10c%11c%11c2c2c4c4c%12c%12c5c5c6c8c6c8c%13c9c9c%10c%10c%11c2c2c4c4c%12c5c6c5c8c9c%10c2c45)C713 (stereo not shown) — CC50 (BC-3; cell growth or viability; 24 h): 9700 nM
CC(=O)OC[C@H]1O[C@@H](Sc2sc(C(=O)c3ccc(Br)cc3)c(N)c2-c2nc3ccccc3s2)[C@H](OC(C)=O)[C@@H](OC(C)=O)[C@H]1OC(C)=O — growth (Malme-3M; SRB; 10 µM, 48 h; relative to: untreated): 98%
CCCCN(CCCC)CC(O)COc1c2ccoc2c(OC)c2oc(CC)cc(=O)c12 (stereo not shown) — late apoptotic or necrotic cells (HTB-140; Annexin V 7-AAD; IC50, 72 h): 48.8%
C[C@H](N)C(=O)N[C@@H](Cc1c[nH]c2ccccc12)C(=O)N[C@@H](CCC(N)=O)C(=O)N[C@@H](Cc1c[nH]c2ccccc12)C(=O)N[C@@H](CCCNC(=N)N)C(=O)N[C@@H](Cc1c[nH]c2ccccc12)C(=O)N[C@@H](CCC(N)=O)C(=O)N[C@@H](Cc1c[nH]c2ccccc12)C(=O)N[C@@H](CCCNC(=N)N)C(N)=O — viability (young human fibroblasts primary; MTT; concentration not given, 24 h, 37 °C, 5% FBS; relative to: untreated cells): 100 ± 1%
C=C[C@H](OC(C)=O)c1ccc(OC(C)=O)cc1 — integrin beta1 decrease (MDA-MB-231; Western blot; concentration not given, 24 h): 15.5%
CCC12CCc3c(c4ccccc4n3C)CCN(CC3OC31)C2 (stereo not shown) — NF-kB p65 nuclear translocation (BV-2; concentration not given, LPS 2 h, added: LPS; relative to: LPS alone): ~59.9%
COc1ccc2c(c1)/C(=N\Nc1nnc3n1N=C(c1ccccc1)CS3)C(=O)N2 — inhibition (OVCAR-4; cell growth or viability, SRB; 10 µM): 21%
COc1cc(CNC(=O)C[C@H](C)CCC=C(C)C)ccc1OCc1cn(-c2cccc(C(F)(F)F)c2)nn1 — growth percent (UO-31; SRB; 10 µM, 48 h): 75.7%
CC(C)c1c(-c2cccc3[nH]ccc23)[nH]c(C(=O)O)c1-c1c(Cl)ccc2[nH]ccc12 — CD86-positive cells (primary CD34+ AML cells; human; 25 µM, 12 days): 97%
COc1cc(CNC(=O)C[C@H](C)CCC=C(C)C)ccc1OCc1cn(-c2ccc(Br)cc2)nn1 — growth (NCI/ADR-RES; SRB; 10 µM, 48 h): 52.1%
COc1ccc([C@@H]2CC(=O)c3c(O)cc(O[C@@H]4O[C@H](CO[C@@H]5O[C@@H](C)[C@H](O)[C@@H](O)[C@H]5O)[C@@H](O[C@H]5O[C@H](CO)[C@@H](O)[C@H](O)[C@H]5O)[C@H](O)[C@H]4O)cc3O2)cc1O — gap closure (A549; cell migration, scratch; 150 µg/mL, 0 h): 0%
COc1cc(CNC(=O)C[C@H](C)CCC=C(C)C)ccc1OCc1cn(-c2ccccc2Cl)nn1 — growth percent (UO-31; SRB; 10 µM, 48 h): 30.3%
C=C(C)[C@@H]1CC[C@]2(C(=O)OCO/N=[N+](\[O-])N3CCCC3)CC[C@]3(C)[C@H](CC[C@@H]4[C@@]5(C)CC[C@H](OC(C)=O)C(C)(C)[C@@H]5CC[C@]43C)[C@@H]12 — cells in S phase (B16-F10; PI flow cytometry; 1.0 µM): 43.1%

Excerpt of the above:
CCCCCCCCCCCCCCCOC(=O)/C=C/c1cc(O)c(O)c(OC)c1 — caspase-9 activity (MDA-MB-231; concentration not given, 24 h; relative to: untreated): 48 % increase
C=CC(OC(C)=O)c1ccc(OC(C)=O)c(OC)c1 (stereo not shown) — phospho-FAK reduction (MDA-MB-231; Western blot, measured: phospho-FAK/FAK; concentration not given, 24 h): 70 to 94%
CCNC(=O)OCc1c(COC(=O)NCC)c(-c2ccc(OC)cc2)n2c1Cc1ccccc1-2 — protein level (H460 and PC-9/gef B4; Western blot, measured: FANCD2; 10 to 80 µM, 24 h): increased
Cc1cc2c(c(=O)o1)C=C1CCC(C(C)CNCc3ccc(O)cc3)CC1O2 (stereo not shown) — ROS production (MC65; inhibitor; concentration not given, tetracycline-free): inhibited
Cc1cc(O)cc(O)c1C(=O)c1c2c3c(c(O)cc(C)c3oc1=O)C(=O)c1c(O)cc(O)cc1-2 — γ-H2AX level (Bel-7402; western blot; concentration not given, 12 h): increased
COC1CN([C@H]2CC[C@H]([C@@]3(C)Oc4c(Cl)cc(C(=O)NCc5c(SC)cc(C)[nH]c5=O)c(C)c4O3)CC2)C1 — GI50 (KARPAS-422; cell growth or viability): 6 nM
COc1cc(CNC(=O)C[C@H](C)CCC=C(C)C)ccc1OCc1cn(-c2ccc([N+](=O)[O-])cc2)nn1 — growth percent (SK-MEL-28 melanoma cells; SRB; 10 µM, 48 h): 87.8%
CCCC(CCC)C(=O)[O][Pt]([NH2])([NH2])([Cl])([Cl])[O]C(=O)C(Cl)Cl — selectivity index (HEK293 and BCPAP; cytotoxicity, MTT; relative to: IC50 HEK293 over IC50 BCPAP): 198
